{"data": "Experimental data collected from several papers", "note": "Each line is one published result; not all experiments were run side by side. ± marks the error that the study gave."}
{"Structure (SMILES)": "O=[N+]([O-])c1ccc(CNc2nc(NCc3cccc(C(F)(F)F)c3)nc3[nH]cnc23)cc1", "system": "chow-fed mice, plasma", "conditions": "intraperitoneal, 20 mg/kg, 6 h", "plasma concentration": "5000 nM"}
{"Structure (SMILES)": "Cc1c2c(n(-c3ccc(Cl)cc3Cl)c1-c1ccc(OS(=O)(=O)CCC(F)(F)F)cc1)CCN(N1CCCCC1)C2=O", "system": "cynomolgus monkey 4, plasma", "conditions": "intravenous infusion, 0.2 mg/kg, 90 min, PET study midpoint", "plasma concentration": "57 nM"}
{"Structure (SMILES)": "CSc1cc(Oc2ccnc3[nH]c(=O)cnc23)ccc1NC(=O)Nc1cc(C(C)(C)C)nn1-c1ccccc1", "system": "female NSG and nude mice, plasma", "conditions": "oral, 20 mg/kg/day, 1 h, end of therapy", "plasma concentration": "~50000 nM"}
{"Structure (SMILES)": "COc1ccc2c(c1)CN(Cc1ccc(C(=O)O)cc1)CCS2", "system": "mdx mice, plasma", "conditions": "oral, drinking water, 10 mg/kg, 12 wk treatment, 2 h after water withdrawal", "plasma concentration": "893 ng/mL"}
{"Structure (SMILES)": "Cc1c(C(=O)NN2CCCCC2)nc(-c2ccc(Cl)cc2Cl)n1-c1ccc(OS(=O)(=O)CCC(F)(F)F)cc1", "assay": "LC-MS/MS", "system": "cynomolgus monkey 2", "conditions": "intravenous infusion, 1.0 mg/kg, 90 min, total, PET mid-point", "plasma concentration": "154 nM"}
{"Structure (SMILES)": "C[C@H](Oc1ccc(-c2nc(-c3ccc4[nH]cnc4c3)no2)cc1C(F)(F)F)C(F)(F)F", "system": "cynomolgus monkey, aneurysm model, plasma", "conditions": "0.1 mg/kg once daily, 2 h post-dose, 2 weeks dosing", "plasma concentration": "15 ± 3.9 nM"}
{"Structure (SMILES)": "S=C(NCCCc1c[nH]cn1)NCCCN(Cc1ccc(Cl)c(Cl)c1)c1ccc(Br)cn1", "system": "male C57BL/6 mice, plasma", "conditions": "intraperitoneal, 30 mg/kg, 0.5 h", "plasma concentration": "2530 ng/mL"}
{"Structure (SMILES)": "Cc1c2c(n(-c3ccc(F)cc3Cl)c1-c1ccc(OS(=O)(=O)CCC(F)(F)F)cc1)CCN(N1CCCCC1)C2=O", "assay": "LC-MS/MS", "system": "cynomolgus monkey 3, plasma", "conditions": "intravenous infusion, 0.4 mg/kg, 90 min, total concentration mid-point of PET", "plasma concentration": "245 nM"}
{"Structure (SMILES)": "Cn1cc(-c2ccncc2)c(-c2ccc(OCc3ccc4ccccc4n3)cc2)n1", "system": "rhesus monkey, plasma", "conditions": "subcutaneous, 0.211 mg/kg, 1 h", "plasma concentration": "36.8 ng/mL"}
{"note": "Some of these lines once more:"}
{"Structure (SMILES)": "Cc1c2c(n(-c3ccc(Cl)cc3Cl)c1-c1ccc(OS(=O)(=O)CCC(F)(F)F)cc1)CCN(N1CCCCC1)C2=O", "system": "cynomolgus monkey 4, plasma", "conditions": "intravenous infusion, 0.2 mg/kg, 90 min, PET study midpoint", "plasma concentration": "57 nM"}
